Measurements pooled from the literature.
“And” joins repeats or separate records; there may be more than shown. ± marks the error that the study gave.

The GI50 of O=C(C[Se]C(=O)c1cc2ccccc2o1)Nc1cccc(C(F)(F)F)c1 is reported as 600 nM (HCC 2998; cell growth or viability, SRB).
The Emax of CCn1nc(Cl)c2c1-c1cnc(N)c(c1)O[C@H](C)c1cc(F)ccc1-c1nn(C)cc1C2 is reported as 99.5% (Ba/F3 EML4-ALK variant 1 E1210K; cell viability).
CCNc1cc2c(cc1C)C1(c3cc(C)c(NCC)cc3O2)c2ccccc2C(=O)N1N=Cc1c[c-]c(-c2ccccn2)cc1.Cc1c(C)c(-c2ccc(-c3ccccc3)cc2)[c-](C)c1C.[Cl-].[Ir+3] — result for “G0/G1 phase cells”: 54.9 ± 2.01% (A549; PI flow cytometry; 0.25 x IC50, 24 h).
COc1ccc(NC(=O)c2ccc3[nH]c(-c4ccc(N(C)C)cc4)nc3c2)cn1 has a reporter activity of 2.23 and 1.79 and 3.5 (HCT-116; measured: NF-κB luciferase reporter; concentration not given, unit not given; baseline: DMSO).
The lipid content of COc1ccc(CSC2C3=C(CCCC3=O)Oc3ccc(Br)cc32)cc1 (centres unmarked) is reported as 0.823 OD492 and 0.935 OD492 and 0.741 OD492 (3T3-L1 preadipocytes; adipogenesis, Oil Red O staining; IC20, 14 days, single replicate).
Under “mean growth percent”, O=C(C[Se]C(=O)c1ccccc1Nc1ccccc1)Nc1cccc(C(F)(F)F)c1 is recorded as -77.2% (NCI60 melanoma subpanel; cell growth; 10 µM, 48 h, one-dose).
Cc1ncsc1-c1ccc(C(C)NC(=O)C2CC(O)CN2C(=O)C(NC(=O)CCCCCCCCCCN2CCCC(Nc3ncc(Cl)c(Nc4ccccc4S(=O)(=O)C(C)C)n3)C2)C(C)(C)C)cc1 (centres unmarked): “log2 fold change” -2.46 (22Rv1; RNA-seq, measured: ZNF546 mRNA; concentration not given; baseline: DMSO).
With CC(=O)Oc1ccccc1C(=O)[Se]CC(=O)Nc1cccc(C(F)(F)F)c1 the mean TGI was 5200 nM (NCI60 melanoma subpanel; total growth inhibition, inhibitor; five-dose).
COc1ccc2c(c1)C(n1nnc3ccccc31)C1=C(CCCC1=O)O2 (centres unmarked): “mean lipid content” 0.753 OD492 (3T3-L1 preadipocytes; adipogenesis, Oil Red O staining; IC20, 14 days).
With N#Cc1ccnc(N2Cc3cn(Cc4ccc(F)cc4)nc3C2)n1 the IC50 was 72 nM (HEK293 expressing GluA1 and GluA2; glutamate excitotoxic cell death, CellTox Green; together with: glutamate).
Cn1ncc2cc(-c3cncc(Cl)c3N3CCC4(CCNC4=O)CC3)ccc21: “log2 fold change” 1.38 (LS174T; gene expression, microarray, measured: HOXB5 mRNA; concentration not given, 4 h; baseline: untreated cells).
The IC50 of CC(C)c1ccc(N(C)c2ccc3c(c2)OCC[C@H]3CNc2cnccc2C(=O)O)cc1 is reported as 6.19 nM (AGS; cell growth or viability, ATP luminescence; 7 days).
C=CC(=O)Nc1cc(Nc2nccc(-c3c(-c4ccc(OCC)cc4)n(C)c4ccccc34)n2)c(OC)cc1N(C)CCN(C)C gave an inhibition of 62.3% (NCI-H1975; cell growth or viability, MTT; 0.5 µM, 72 h).
For COc1cc(O)ccc1-c1c[nH]c2ncc(-c3cncc(C(=O)N(C)C)c3)cc12, the GI50 was 138 ± 9.9 nM (Ba/F3 BCR-ABL wild type; cell proliferation; 72 h).
With COc1ccc(Cn2cc3c(n2)CN(c2cccc(C(=O)N(C)C)c2)C3)cc1 the IC50 was 62 nM (HEK293 expressing GluA1 and GluA2; glutamate excitotoxic cell death, CellTox Green; together with: glutamate).
COC(=O)c1cc(NC2=NC(=O)C(=Cc3ccc(C)cc3)S2)ccc1OC(C)=O gave a metabolite level of -0.42 fold change (MCF7; GC-MS, measured: D-Mannose; 1 µM; baseline: DMSO).
For O=C(C[Se]C(=O)c1ccc2ccccc2c1)Nc1cccc(C(F)(F)F)c1, “mean growth percent” read -79.4% (NCI60 melanoma subpanel; cell growth; 10 µM, 48 h, one-dose).
With CCN(CC)CC(=O)Nc1cccc(-n2cc(-c3ccc4ccc(-c5cn(-c6cccc(NC(=O)CN(CC)CC)c6)nn5)cc4c3)nn2)c1 the fold regulation was -1.34 (RCC4; PCR angiogenesis array, measured: MDK; 5 x IC50, 4 h, normoxia; baseline: untreated).
CCCCCCCCCCCC(=O)N[C@H](CO)C[C@@H](O)c1ccccc1 gave a sphingomyelin level of 47100 pmol/sample and 48800 pmol/sample and 54200 pmol/sample (HeLa; CERT activity, HPLC-MS/MS lipidomics, measured: sphingomyelin 22; 1 µM, 24 h, not cell-number normalised).
Under “mean growth percent”, COc1ccc2c(c1)c(CC(=O)[Se]CC(=O)Nc1cccc(C(F)(F)F)c1)c(C)n2C(=O)c1ccc(Cl)cc1 is recorded as -86.6% (NCI60 CNS subpanel; cell growth; 10 µM, 48 h, one-dose).
CN(C)CCN1CCN(c2ccc3nc(-c4ccc5nc(-c6ccc(C(F)(F)F)cc6)[nH]c5c4)[nH]c3c2)CC1 gave a growth percent of 40.7% (UACC-257; SRB; 10 µM, 48 h).
COc1ccccc1-c1ccncc1C(=O)Nc1nnc(OCc2ccc(Cl)cc2)s1 has a colony count of 34 and 35 and 25 and 22 (MDA-MB-231; 0.75 µM).
The viability reduction of CCCC[N+]1=c2cc3c4cc2[O][Mn-2]1(=[C]=O)(=[C]=O)(=[C]=O)[n+]1ccc(cc1)C(=O)NCCNC(=O)c1cc[n+](cc1)[Mn-2](=[C]=O)(=[C]=O)(=[C]=O)([O]3)[N+]=4CCCC is reported as 95% (HCT-15; MTT; 50 µM, 48 h, photolysed compound).
COC(=O)C1=C(C)Oc2ccc(Br)cc2C1C(C(C)=O)C(=O)OC (centres unmarked) gave a lipid content of 0.632 OD492 (3T3-L1 preadipocytes; adipogenesis, Oil Red O staining; IC20, 14 days, single replicate).
CCN(CC)c1ccnc(N2Cc3cnn(Cc4ccc(F)cc4)c3C2)n1 has an IC50 of 543 nM (HEK293 expressing GluA1 and GluA2; glutamate excitotoxic cell death, CellTox Green; together with: glutamate).
The viability of CCOC(=O)c1ccc(-n2c(N)c(C#N)c(SC)c(C#N)c2=O)cc1 is reported as 67.5% (HepG2; cell growth or viability, MTT; 12.5 µM, 24 h).
With COc1cc(N(C)CCN(C)C)c(NC(=O)/C=C/c2cc(-c3ccccc3)cc(-c3ccccc3)c2)cc1Nc1nccc(-c2cn(C)c3ccccc23)n1 the inhibition was 61.5% (NCI-H1975; cell growth or viability, MTT; 0.5 µM, 72 h).
CNS(=O)(=O)Nc1nccc(Cc2c(C)c3ccc(Oc4ncccc4F)cc3oc2=O)c1F gave an IC50 of 2.69 nM (MP38; cell viability, CellTiter-Glo; 7 days).
O=C(C[Se]C(=O)c1cc2ccccc2s1)Nc1cccc(C(F)(F)F)c1 gave a mean TGI of 4030 nM (NCI60 leukaemia subpanel; NCI60 five-dose screen).
With C=CC(=O)Nc1cc(Nc2nccc(-c3c(-c4ccc(CCCC)cc4)n(C)c4ccccc34)n2)c(OC)cc1N(C)CCN(C)C the inhibition was 67.2% (NCI-H1975; cell growth or viability, MTT; 0.5 µM, 72 h).
O=C(C[Se]C(=O)c1ccc2ccccc2n1)Nc1cccc(C(F)(F)F)c1 gave a mean TGI of 3720 nM (NCI60 melanoma subpanel; total growth inhibition, inhibitor; five-dose).
For CCN(C(=O)c1cc(F)ccc1Oc1nncnc1N1CCC2(C1)CN([C@H](CCCN(C)CCOC)C(C)C)C2)C(C)C, the GI50 was > 10000 nM (C-33-A; cell growth or viability; 72 h).
With O=C(N1CCCC1)n1cc(-c2ccc(-c3ccccc3)cc2)nn1 the SILAC ratio was 0.97 (mouse T cells; N-terminal labelling proteomics, measured: PAIP2B N-terminal peptides; 0.001 µM, 6 h; baseline: DMSO).
CCc1n(CC(=O)O[C@@H]2C[C@H](C)CC[C@H]2C(C)C)c2ccccc2[n+]1C gave a mRNA level of 5.76 (HTS cells (mouse); gene microarray, measured: TRIB3; 1 µM, 6 h, unit not given; baseline: untreated).
For CC(C)Cc1ccc(C(C)C(=O)[Se]CC(=O)Nc2cccc(C(F)(F)F)c2)cc1 (centres unmarked), “mean growth percent” read -84.8% (NCI60 CNS subpanel; cell growth; 10 µM, 48 h, one-dose).
For NC(=O)c1ccc(-c2ccccc2Cl)c2c3c([nH]c12)CC[C@@H](N)C3, the IC50 was 3.22 nM (DOHH-2; cell growth or viability).
The inhibition of COc1cc(N(C)CCN(C)C)c(NC(=O)/C=C/c2ccc3c(c2)OCO3)cc1Nc1nccc(-c2cn(C)c3ccccc23)n1 is reported as 73.7% (NCI-H1975; cell growth or viability, MTT; 0.5 µM, 72 h).
With CSC(=S)N/N=C(\C)c1ccc(Nc2nnc(-c3ccc(Cl)cc3)c3ccccc23)cc1 the viability was 10.4% (MCF7; cell growth or viability, MTT; 2.5 µM, 24 h).
With CO[C@@H]1[C@@H](OC(N)=O)[C@@H](O)[C@H](Oc2ccc3c(O)c(NC(=O)c4ccc(O)c(CC=C(C)C)c4)c(=O)oc3c2C)OC1(C)C the colony count was 19 (HCT-116 parental; 150 µM, replicate 1).
For COc1cc(N(C)CCN(C)C)c(NC(=O)/C=C/c2ccc3nc(C)ccc3c2)cc1Nc1nccc(-c2cn(C)c3ccccc23)n1, the inhibition was 72.5% (NCI-H1975; cell growth or viability, MTT; 0.5 µM, 72 h).
CN1CCCNC(=O)c2cccc(c2)C(=O)NCCCN(C)CCCNc2cccc3c2C(=O)c2cccc(c2C3=O)NCCC1: “log2 fold change” -1.09 (SAS; RNA-Seq, measured: METAP1 mRNA; 1 µM, 6 h; baseline: untreated cells).

A few entries again:
The viability reduction of CCCC[N+]1=c2cc3c4cc2[O][Mn-2]1(=[C]=O)(=[C]=O)(=[C]=O)[n+]1ccc(cc1)C(=O)NCCNC(=O)c1cc[n+](cc1)[Mn-2](=[C]=O)(=[C]=O)(=[C]=O)([O]3)[N+]=4CCCC is reported as 95% (HCT-15; MTT; 50 µM, 48 h, photolysed compound).
COC(=O)c1cc(NC2=NC(=O)C(=Cc3ccc(C)cc3)S2)ccc1OC(C)=O gave a metabolite level of -0.42 fold change (MCF7; GC-MS, measured: D-Mannose; 1 µM; baseline: DMSO).
The IC50 of CC(C)c1ccc(N(C)c2ccc3c(c2)OCC[C@H]3CNc2cnccc2C(=O)O)cc1 is reported as 6.19 nM (AGS; cell growth or viability, ATP luminescence; 7 days).
The lipid content of COc1ccc(CSC2C3=C(CCCC3=O)Oc3ccc(Br)cc32)cc1 (centres unmarked) is reported as 0.823 OD492 and 0.935 OD492 and 0.741 OD492 (3T3-L1 preadipocytes; adipogenesis, Oil Red O staining; IC20, 14 days, single replicate).
CN1CCCNC(=O)c2cccc(c2)C(=O)NCCCN(C)CCCNc2cccc3c2C(=O)c2cccc(c2C3=O)NCCC1: “log2 fold change” -1.09 (SAS; RNA-Seq, measured: METAP1 mRNA; 1 µM, 6 h; baseline: untreated cells).
